Assay results of several laboratories.
Each line is one published result; not all experiments were run side by side. Numbers after ± are the reported error.
Chain of UniProt Q14680 (whole entry, looked up): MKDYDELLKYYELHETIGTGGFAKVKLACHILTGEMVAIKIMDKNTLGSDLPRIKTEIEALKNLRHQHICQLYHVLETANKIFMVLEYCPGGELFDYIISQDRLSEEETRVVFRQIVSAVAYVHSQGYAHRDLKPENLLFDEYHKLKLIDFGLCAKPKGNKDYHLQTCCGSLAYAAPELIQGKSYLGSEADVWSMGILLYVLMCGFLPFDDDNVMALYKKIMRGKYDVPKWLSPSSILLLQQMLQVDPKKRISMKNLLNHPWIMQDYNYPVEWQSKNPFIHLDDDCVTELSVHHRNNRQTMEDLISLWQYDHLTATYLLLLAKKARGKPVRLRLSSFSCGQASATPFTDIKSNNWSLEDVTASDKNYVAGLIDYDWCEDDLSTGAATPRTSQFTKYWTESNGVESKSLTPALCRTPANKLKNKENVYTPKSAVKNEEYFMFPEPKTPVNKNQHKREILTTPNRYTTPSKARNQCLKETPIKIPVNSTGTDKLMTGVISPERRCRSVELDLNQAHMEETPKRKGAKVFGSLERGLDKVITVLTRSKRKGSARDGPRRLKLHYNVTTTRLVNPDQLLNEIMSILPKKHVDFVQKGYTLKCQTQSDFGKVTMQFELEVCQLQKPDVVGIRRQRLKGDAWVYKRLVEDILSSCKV

SMILES	target or system	assay	test system	conditions	how to read	quantity	value
Cn1cncc1-c1c(F)cncc1NC(=O)c1c(N)nn2cc(F)cnc12	–	–	human patients	oral, up to 40 mg once daily, 21 days	–	upper gastrointestinal haemorrhage DLT	0%
CN1CC[C@@H](c2c(O)cc(O)c3c(=O)cc(-c4ccc(C(F)(F)F)cc4Cl)oc23)[C@@H]1CO	–	measured: Sepsis	AML	oral, 150 mg, intermittent dosing	–	patients with adverse event	50%
C[C@H]1CN(c2n[nH]c3nc(N[C@H]4CC[C@H](NS(=O)(=O)CCC(F)(F)F)CC4)ncc23)CCO1	Maternal embryonic leucine zipper kinase (MELK, Homo sapiens, UniProt Q14680)	inhibitor, Kinobeads competition profiling	–	0.032 µM	relative to: vehicle	relative abundance	1.03
CO[C@H]1C[C@@H]2CC[C@@H](C)[C@@](O)(O2)C(=O)C(=O)N2CCCC[C@H]2C(=O)O[C@H]([C@H](C)C[C@@H]2CC[C@@H](OC(=O)NCCOCCOCCOCCOCCOCCOCCOCCOCCC(=O)N3CCc4cc(Cn5nc(-c6ccc7oc(N)nc7c6)c6c(N)ncnc65)ccc4C3)[C@H](OC)C2)C[C@@H](O)[C@H](C)/C=C(\C)[C@@H](O)[C@@H](OC)C(=O)[C@H](C)C[C@H](C)/C=C/C=C/C=C/1C	–	phase 1 dose escalation	advanced solid tumour patients	intravenous, 10 mg weekly, grade ≥3	–	any TRAE incidence	37.5%
Cc1cc(C(=O)NC(C)(C)COc2cccc3c2C(N)=NS(=O)(=O)N3)cc(C)n1	Salmonella typhimurium	Ames test, confirmatory	TA1537	333 µg/plate	relative to: solvent control	revertant ratio	1.2
COc1ncnn2ccc(-c3cnc4nc(C)n(Cc5nnc([C@@H](C)F)o5)c4c3)c12	–	phase 1 trial	human patients	oral, dose not given, CTCAE grade 2	–	patients with decreased WBC count	0%
O=C(c1ccc(F)c(F)c1Nc1ccc(I)cc1F)N1CC(O)([C@@H]2CCCCN2)C1	–	–	patients aged sample A to sample B years	oral, dose not given	–	adverse events of special interest	50%
S=c1oc(-c2ccccc2)nn1CN1CCN(Cc2ccccc2)CC1	–	–	Wistar rat female	oral, 100 mg/kg, acute toxicity OECD 423	–	serum creatinine	0.6 ± 0.04 mg/dL
CC[C@H](C)[C@H](NC(=O)[C@H](Cc1ccccc1)NC(=O)[C@H](CCC(=O)O)NC(=O)[C@H](CCCNC(=N)N)NC(=O)[C@H](C)NC(=O)[C@H](C)NC(=O)[C@H](CCC(N)=O)NC(=O)[C@H](CCC(=O)O)NC(=O)[C@H](CCC(=O)O)NC(=O)[C@H](CC(C)C)NC(=O)[C@H](Cc1ccc(O)cc1)NC(=O)[C@H](CO)NC(=O)[C@H](CO)NC(=O)[C@@H](NC(=O)[C@H](CC(=O)O)NC(=O)[C@H](CO)NC(=O)[C@@H](NC(=O)[C@H](Cc1ccccc1)NC(=O)[C@@H](NC(=O)CNC(=O)[C@H](CCC(=O)O)NC(=O)[C@H](C)NC(=O)CCc1c[nH]cn1)[C@@H](C)O)[C@@H](C)O)C(C)C)C(=O)N[C@@H](C)C(=O)N[C@@H](Cc1c[nH]c2ccccc12)C(=O)N[C@@H](CC(C)C)C(=O)N[C@H](C(=O)N[C@@H](CCCNC(=N)N)C(=O)NCC(=O)N[C@@H](CCCNC(=N)N)C(=O)N[C@@H](CCCCNC(=O)COCCOCCNC(=O)COCCOCCNC(=O)CC[C@H](NC(=O)CCCCCCCCCCCCCCCCC(=O)O)C(=O)O)C(=O)NCC(=O)NCC(=O)N[C@@H](CO)C(=O)N[C@@H](CCCCNc1c(NCCCCCN(O)C(=O)CCC(=O)NCCCCCN(O)C(=O)CCC(=O)NCCCCCN(O)C(C)=O)c(=O)c1=O)C(=O)O)C(C)C [zirconium-89 labelled]	–	–	rat, pancreas	iv, 3 nmol/kg, 72 h, ex vivo	–	tissue uptake	0.32 %ID/g
O=S(=O)(Nc1ccccc1)c1ccc(NC(=S)Nc2ccccc2)cc1	–	measured: Glu	male mouse, blood	oral, 5 mg/kg daily, 14 days	–	blood chemistry level	226 mg/dL
CC[C@H](C)[C@@H]1NC(=O)[C@@H]2CCCN2C(=O)[C@H](CC(C)C)NC(=O)[C@H](CC(C)C)NC(=O)CNC(=O)[C@@H](NC(=O)[C@@H](NC(=O)[C@H](CC(=O)O)NC(=O)CNC(=O)[C@@H](NC(=O)[C@H](C)NC(=O)CNC(=O)[C@H](CCCCN)NC(=O)[C@H](CC(C)C)NC(=O)[C@H](CC(C)C)NC(=O)[C@H](CCCCN)NC(=O)CNC(=O)[C@@H](NC(=O)[C@@H](N)CC(C)C)C(C)C)C(C)C)C(C)C)CSSC[C@@H](C(=O)O)NC1=O	–	RNA-seq, measured: Rab25	mouse, traumatic brain injury model, frontal cortex and hippocampus	dose not given	relative to: TBI alone	log2 fold change	-4.84
C[C@@H]1OC(=O)NN=C1c1ccc(-c2ccc(F)cc2)c(C(F)(F)F)c1	–	phase I trial, measured: Diarrhoea all grades	human patients	20 mg loading then 1 mg daily	–	patients with adverse event	0%
CCN(CCO)CCCC(C)Nc1ccnc2cc(Cl)ccc12 (stereo not drawn)	–	–	newly diagnosed glioblastoma patients	oral, 400 mg/dose, grade 3, together with: radiotherapy plus temozolomide	–	febrile neutropenia patients	33%
COc1cc2c(Oc3ccc4[nH]c(C)cc4c3F)ccnc2cc1OCC1(N)CC1	–	–	paediatric recurrent refractory sarcoma	concentration not given, whole group	–	grade 1 or 2 Neutropenia	11.8%
COc1cccc(-c2n[nH]c(SCc3ccccn3)n2)c1OC	Salmonella typhimurium	Ames test, preincubation	TA100	1.0 mg/plate, with rat liver S9	–	revertant colonies per plate	130

For quick reference, copied from above:
SMILES	target or system	assay	test system	conditions	how to read	quantity	value
CO[C@H]1C[C@@H]2CC[C@@H](C)[C@@](O)(O2)C(=O)C(=O)N2CCCC[C@H]2C(=O)O[C@H]([C@H](C)C[C@@H]2CC[C@@H](OC(=O)NCCOCCOCCOCCOCCOCCOCCOCCOCCC(=O)N3CCc4cc(Cn5nc(-c6ccc7oc(N)nc7c6)c6c(N)ncnc65)ccc4C3)[C@H](OC)C2)C[C@@H](O)[C@H](C)/C=C(\C)[C@@H](O)[C@@H](OC)C(=O)[C@H](C)C[C@H](C)/C=C/C=C/C=C/1C	–	phase 1 dose escalation	advanced solid tumour patients	intravenous, 10 mg weekly, grade ≥3	–	any TRAE incidence	37.5%
S=c1oc(-c2ccccc2)nn1CN1CCN(Cc2ccccc2)CC1	–	–	Wistar rat female	oral, 100 mg/kg, acute toxicity OECD 423	–	serum creatinine	0.6 ± 0.04 mg/dL
